Measurements pooled from the literature.
Lines come from different studies, so protocols differ. Numbers after ± are the reported error.

SMILES | test | system | setting | how to read | quantity | value
CN1CCN(CCC(=O)Nc2ccc3c(c2)Sc2cccc(-c4cc(=O)cc(N5CCOCC5)o4)c2S3)CC1 |  | nude mice, SW-620 xenograft, tumour | dose not given |  | duration of sensitising tumour levels | ≥ 4 h
O=C(/C=C\c1ccc(O)c(O)c1)Nc1ccc(S(=O)(=O)Nc2ncccn2)cc1 |  | n-octanol/PBS | pH 7.4 |  | log P | > 0.5
CCCCCCCCC/C=C/C(=O)CCc1ccc(O)c(OC)c1 |  | rat, small intestine site 4 contents | oral, dose not given, 4 h, β-glucuronidase treated | relative to: ingested amount | recovery | 0.09%
CC(C)(CC(=O)N1CCCC1)NCC(=O)N1C[C@@H](F)C[C@H]1C#N |  | Chinese type 2 diabetes patients, plasma | oral, 50 mg once daily, multiple doses |  | Cmax at steady state | 119 ng/mL
CC(C)NC(=O)COc1cccc(-c2nc(Nc3ccc4[nH]ncc4c3)c3ccccc3n2)c1 |  | male C57BL/6 mouse, brain | oral, 100 mg/kg |  | AUC(0-inf) | 2050 ng·h/mL
CC[C@H](C)[C@@H]1NC(=O)[C@@H]2CSSC[C@H](NC(=O)[C@H](C(C)C)NC(=O)[C@H]([C@@H](C)CC)NC(=O)[C@H](C(C)C)NC(=O)[C@@H](NC(=O)[C@H](CCCCN)NC(=O)[C@@H](N)CCCNC(=N)N)CSSC[C@@H](C(=O)N[C@@H](CCCNC(=N)N)C(=O)O)NC(=O)[C@H](CC(C)C)NC(=O)[C@H]([C@@H](C)CC)NC1=O)C(=O)N[C@@H](CCCNC(=N)N)C(=O)N[C@@H](CCCNC(=N)N)C(=O)N[C@@H](CC(N)=O)C(=O)N[C@@H](CCCNC(=N)N)C(=O)N[C@@H](CCCNC(=N)N)C(=O)N2 | LC/MS | PBS | 0.1 mg/mL | relative to: LC peak area | two-disulfide form | 92%
CCCCN(CCCC)CCC(O)c1cc2c(Cl)cc(Cl)cc2c2cc(C(F)(F)F)ccc12 (stereo not shown) | shake-flask | PEG400 | 37 °C |  | thermodynamic solubility | 5.73 ± 0.38 mg/g
O=C(c1cccc(/N=N/c2cccc(OCCCN3CCCCC3)c2)c1)N1CCCC1 |  | Tris-HCl buffer, 1% DMSO-d6 | 25 µM, pH 7.4, 20 ± 3 °C |  | cis isomer thermal half-life | 114 days
CC[C@H](C)[C@H](NC(=O)[C@H](Cc1ccccc1)NC(=O)[C@H](CC(=O)O)NC(=O)[C@H](CCCNC(=N)N)NC(=O)[C@H](C)NC(=O)[C@H](C)NC(=O)[C@H](CC(C)C)NC(=O)[C@H](CC(N)=O)NC(=O)[C@H](CC(=O)O)NC(=O)[C@H](CC(C)C)NC(=O)[C@@H](NC(=O)[C@@H](NC(=O)[C@H](CC(N)=O)NC(=O)[C@H](CCSC)NC(=O)[C@H](CCC(=O)O)NC(=O)[C@H](CC(=O)O)NC(=O)[C@H](CO)NC(=O)[C@H](Cc1ccccc1)NC(=O)[C@H](CO)NC(=O)CNC(=O)[C@H](CC(=O)O)NC(=O)CNC(=O)[C@@H](N)Cc1c[nH]cn1)[C@@H](C)O)[C@@H](C)CC)C(=O)N[C@@H](CC(N)=O)C(=O)N[C@@H](Cc1c[nH]c2ccccc12)C(=O)N[C@@H](CC(C)C)C(=O)N[C@H](C(=O)N[C@@H](CCC(N)=O)C(=O)N[C@H](C(=O)N[C@@H](CCCCN)C(=O)N[C@H](C(=O)N[C@H](C(=O)N[C@@H](CC(=O)O)C(=O)O)[C@@H](C)O)[C@@H](C)CC)[C@@H](C)O)[C@@H](C)CC |  | human | subcutaneous thigh or arm, dose not given | relative to: abdominal injection | relative bioavailability reduction | 7%
O=C1c2c(O)cc(O)cc2OC(c2ccc(O)c(O)c2)C1O (stereo not shown) | mass spectrometry | Caco-2 | 40 µM, 6 h |  | Papp A→B | 24.8 ×10⁻⁶ cm/s
CC(C)[C@H](NC(=O)[C@@H]1CCCN1C(=O)[C@H](CCCNC(=N)N)NC(=O)[C@H](CS)NC(=O)[C@H](Cc1c[nH]c2ccccc12)NC(=O)[C@H](CCCNC(=N)N)NC(=O)[C@@H](Cc1ccccc1)NC(=O)[C@H](Cc1c[nH]cn1)NC(=O)[C@H](CCC(=O)O)NC(=O)[C@H](CS)NC(=O)[C@H](CS)NC(=O)[C@H](CCCCN)NC(=O)[C@@H]1CC(=O)N[C@@H](CCCNC(=N)N)C(=O)N[C@@H](C(C)C)C(=O)N[C@@H](CC(=O)O)C(=O)N[C@H](Cc2ccc(O)cc2)C(=O)N1)C(N)=O [technetium-99m labelled] |  | female C57 mouse, B16/F1 melanoma, kidneys | intravenous, dose not given, 2 h, together with: NDP-MSH 10 µg co-injected |  | tissue uptake | 67.2 ± 9.72 %ID/g
CCCC[C@H](NC(C)=O)C(=O)N[C@H]1CCC(=O)NC[C@@H](C(=O)N[C@@H](Cc2c[nH]c3ccccc23)C(N)=O)NC(=O)[C@H](CCCNC(=N)N)NC(=O)[C@@H](Cc2ccccc2)NC(=O)[C@H](Cc2c[nH]cn2)NC1=O |  | healthy volunteers, both sexes, plasma | subcutaneous, 3.0 mg once daily, day 7 |  | median Vss/F | 288 L
NC(=O)CN[C@H]1CCCNC1 | capillary electrophoresis-MS | water |  |  | pKa2 | 8.53
Oc1ccc2c3c(cnc2c1)-c1ccc(C(F)(F)F)cc1O[C@@H]3c1ccc(OCCN2CC(CF)C2)cc1 |  | human, healthy female, urine and faeces | oral, 400 mg, 480 h |  | total radioactivity recovery | 97.5%
O=C(CCCCCCC(=O)Nc1ccccc1)NO |  | human patients, serum | oral, 600 mg twice daily |  | AUC(0-8 h) | 10.8 µM·h
CSc1cc(C)nc(SC)c1NC(=O)CN1CCN(CCSc2nc3ccccc3[nH]2)CC1 |  | mouse Crl:CD1 (ICR) female, cerebrum | intranasal repeated, 32.4 µg in 0.01 N HCl, 60 min |  | concentration | 0.8 ng/g
[2H]C([2H])([2H])Oc1cc2c(cc1OC([2H])([2H])[2H])C1CC(=O)C(CC(C)C)CN1CC2 (stereo not shown) | refers to: deuterated α-HTBZ | healthy human volunteers, plasma | oral, 12 mg single dose, standard meal |  | dose-normalized AUC(0-t) | 16 ng·h/mL
Cc1nc2cccc(OCC(C)(C)C(=O)NC(C)C)c2c(N)c1C(=O)O |  | Sprague-Dawley rat (both sexes), plasma | dietary, 30 to 100 mg/kg/day, day 90 |  | Tmax range | 1.5 to 7.5 h
COC1=CC(=O)C[C@@H](C)[C@]12Oc1c(Cl)c(OC)cc(OC)c1C2=O | shake-flask | PEG400 | 37 °C |  | thermodynamic solubility | 13.5 ± 0.6 mg/g

SMILES | test | system | setting | how to read | quantity | value
CNCc1ccc(-c2[nH]c3cc(F)cc4c3c2CCNC4=O)cc1 |  | human patients, plasma | oral, 80 mg once daily, day 1, single dose, arithmetic mean |  | half-life | 11 h
Cc1cc(C)c2c(c1)[C@@H](N(Cc1cc(C(F)(F)F)cc(C(F)(F)F)c1)c1nnn(C)n1)CCCN2C[C@H]1CC[C@H](C(=O)O)CC1 |  | dyslipidemic patients, plasma | oral, 4 to 6 weeks after last dose | relative to: patients | patients below quantitation limit | 92%
Cn1cc(-c2cn3nccc3c(-c3cnn([C@]4(CC#N)C[C@@H](C#N)C4)c3)n2)cn1 |  | healthy Japanese human, plasma | 400 mg once daily, day 10, multiple dose, fed, geometric mean |  | dose-normalized Cmax | 2.2 ng/mL/mg
COC(=O)Nc1nc2ccc(Sc3ccccc3)cc2[nH]1 | shake-flask | polysorbate 80 | 37 °C |  | thermodynamic solubility | 1.9 ± 0.05 mg/g
O=c1c(-c2ccc(O)cc2)coc2cc(O)cc(O)c12 | dynamic light scattering | 50 mM potassium phosphate | pH 7.0 |  | critical aggregation concentration | 150 µM
C[C@H](Oc1ccc(-c2nc(-c3ccc4[nH]cnc4c3)no2)cc1C(F)(F)F)C(F)(F)F |  | cynomolgus monkey, aneurysm model, plasma | 0.1 mg/kg once daily, 8 h post-dose, 12 months dosing |  | plasma concentration | 23 ± 1.8 nM
CC[C@H](C)[C@@H]1NC(=O)[C@H](Cc2ccc(O)cc2)NC(=O)[C@@H](N)CSSC[C@@H](C(=O)N2CCC[C@H]2C(=O)N[C@@H](CC(C)C)C(=O)NCC(N)=O)NC(=O)[C@H](CC(N)=O)NC(=O)[C@H](CCC(N)=O)NC1=O | ELISA | knock-out male mice lacking compound, plasma | intraperitoneal, 12 µg total |  | Cmax | 255 ± 44 pg/sample
CC(C)/N=c1\cc2n(-c3ccc(Cl)cc3)c3ccccc3nc-2cc1Nc1ccc(Cl)cc1 | shake-flask | PEG400 | 37 °C |  | thermodynamic solubility | 13.2 ± 0.61 mg/g
CNC(=O)c1ccc(-c2cnn3ccc(C(=O)N(C[C@H]4CCC(=O)O4)c4ccc(OC(F)(F)F)cc4)cc23)cc1 |  | female C57BL/6 mouse, plasma | oral, 10 mg/kg |  | AUC | 0.075 µM·h
CC(=O)Oc1ccccc1C(=O)O |  | male Hartley guinea pig, anaesthetized | intravenous infusion, 3 mg/kg, 10 min infusion | relative to: baseline | QTc change | 1.3 ± 0.6%
O=C1N=C(N2CCOCC2)CN1c1ccc(Cl)cc1 |  | beagle dog, both sexes | oral, 30 mg/kg, day 0, tablets, single dose |  | apparent volume of distribution (Vz/F) | 0.704 L/kg
C[C@]12CC[C@@H]3c4ccc(O)cc4CC[C@H]3[C@@H]1C[C@@H](O)[C@@H]2O | GC-MS | breast cancer women on NSAI, serum | vaginal, 0.03 mg daily, 4 h, day 28 |  | mean serum concentration | 0.00312 ng/mL
COc1c(N2CCNC(C)C2)c(F)cc2c(=O)c(C(=O)NCCCN(C)C)cn(C3CC3)c12 (racemic) | refers to: GFX formed plus unchanged prodrug | pigmented rabbits, choroid-retinal pigment epithelium | topical eye drop, 30 µL of 35 mg/mL, 1 h | relative to: prodrug over GFX 5 mg/mL | tissue level ratio | 1.95 fold
O=C1Cc2cc(CCN3CCN(c4nsc5ccccc45)CC3)c(Cl)cc2N1 |  | male Hartley guinea pig, anaesthetized | intravenous infusion, 0.1 mg/kg, 10 min infusion | relative to: baseline | QTc change | 4.9 ± 2%
Cn1c(-c2ccc(C(N)=O)cc2F)nnc1C(C)(C)Oc1c(F)cc(Cl)cc1F |  | healthy young Japanese subjects, plasma | oral, 50 mg once daily, day 18, 14 days dosing |  | half-life mean | 24.9 h
O=C(O)CNC(=O)c1cccc(O)c1 |  | human hemodialysis patients, plasma | pre-treatment | relative to: hemodialysis over normal subjects | total plasma concentration ratio | 34
O=C(O)c1cc(/N=N/c2ccc(S(=O)(=O)Nc3ccccn3)cc2)ccc1O | shake-flask | polysorbate 80 | 37 °C |  | thermodynamic solubility | 11.4 ± 0.63 mg/g
[11CH3]c1ccccc1S[C@@H](c1ccccc1)[C@@H]1CNCCO1 |  | 1-octanol/phosphate buffer | pH 7.4 |  | log P | 2 to 2.47
